{"data": "Experimental data from different studies", "note": "Lines come from different studies, so protocols differ. ± gives the spread as reported. Where no end group is shown, it is not given here."}
{"Substance": "C=C1[C@@H](C)[C@H]2[C@H](Cc3ccccc3)NC(=O)[C@]23[C@H](O)/C=C/[C@](C)(O)C[C@@H](C)C/C=C/[C@H]3[C@@H]1O", "organism": "Phyllosticta citricarpa", "test system": "PDA plate", "conditions": "100 µL of 10 mg/mL, 21 days, methanol solution", "measurement": "mycelial growth", "value": "3.2 ± 0.2 cm"}
{"Substance": "HVFLRF-NH2 (C-amide)", "organism": "Drosophila melanogaster", "test": "heart rate", "test system": "adult heart", "conditions": "40 nL injected, 1 µM, 10 min", "how to read": "reference: DMS", "measurement": "inhibition", "value": "86%"}
{"Substance": "CCCCCCCCOc1c(OC)cc(NC(C)CCCNC(=O)C(N)C(C)CC)c2nc(C(C)(C)C)ccc12 (centres unmarked)", "organism": "Staphylococcus aureus", "test": "microbial killing", "test system": "ATCC33591 MRSA", "conditions": "drug-resistant strain", "measurement": "MBC", "value": "> 20 µg/mL"}
{"Substance": "O=C(NCc1ccc2c(c1)OCO2)c1ncc(Br)cc1F", "organism": "Saccharomyces cerevisiae", "test": "microbial growth", "test system": "BY4743", "conditions": "72 h", "measurement": "MIC", "value": "200 µM"}
{"Substance": "CN[C@@H]1[C@H](O)[C@H](NC)[C@H]2O[C@@]3(O)C(=O)C[C@@H](C)O[C@H]3O[C@@H]2[C@H]1O", "organism": "Neisseria gonorrhoeae", "test": "microbial growth, disc diffusion", "test system": "ATCC49226", "conditions": "40 µg/disc", "measurement": "inhibition zone", "value": "10 to 11 mm"}
{"Substance": "CC(=O)c1c(O)c(C)c(O)c2c1OC1=CC(=O)C(=C(C)N[C@@H](CCCNC(=N)N)C(=O)O)C(=O)[C@]12C", "organism": "Candida tropicalis", "test": "broth microdilution", "test system": "ATCC 750 fluconazole and amphotericin B resistant", "conditions": "24 and 48 h", "measurement": "MIC99", "value": "24 µM"}
{"Substance": "MRTRVSGLY", "organism": "rhesus rotavirus", "test": "viral replication", "test system": "peptide, mouse cholangiocytes", "conditions": "1 mM, cell pretreatment with peptide", "how to read": "reference: serum-free medium", "measurement": "viral yield", "value": "no effect"}
{"Substance": "CCCCCCOc1c(OC)cc(NC(C)CCCNC(=O)C(N)Cc2cc3ccccc3[nH]2)c2nc(C(C)(C)C)ccc12 (centres unmarked)", "organism": "Staphylococcus aureus", "test": "microbial killing", "test system": "ATCC33591 MRSA", "conditions": "drug-resistant strain", "measurement": "MBC", "value": "> 20 µg/mL"}
{"Substance": "CC(=NNC(=O)CN1c2c(-c3ccccc3)n[nH]c2-c2ccccc2S1(=O)=O)c1ccc([N+](=O)[O-])s1", "organism": "HIV-1", "test": "viral replication", "test system": "PBMC", "measurement": "EC90", "value": "> 100 µM"}
{"Substance": "TFFRLFNRGRRRRSVQWCA", "organism": "Streptococcus sanguis", "test": "OD600", "test system": "peptide, ATCC 49295, 4 h single-species biofilm", "conditions": "128 µg/ml, 5 min exposure, OD600 read over 5 h", "measurement": "biofilm growth", "value": "no effect"}
{"Substance": "CC(C)n1ncc2c(C(=O)NCC3(C)CNC3)cc(C3CC3)nc21", "organism": "Enterovirus D68", "test": "antiviral", "test system": "US/IL/14-18952, neonatal mice", "conditions": "intraperitoneal, 50 mg/kg daily, day 14 post-infection, immediate treatment", "how to read": "direction not given", "measurement": "paralysis score", "value": "0.4 ± 0.42"}
{"Substance": "CP(=O)(O)CCC(N)C(=O)O (centres unmarked)", "organism": "Euphorbia heterophylla", "conditions": "500 g/ha, 13 days, EPHHL, post-emergence spray", "how to read": "reference: untreated (0%), complete kill (100%)", "measurement": "herbicidal activity", "value": "100%"}
{"Substance": "CC1CCN(CCCNC(=O)c2ccc3c(=O)n(CCc4ccccc4)c(=O)[nH]c3c2)CC1", "organism": "Hepatitis C virus", "test": "HCV infection, Gaussia luciferase reporter", "test system": "Huh7.5.1 reporter cells", "how to read": "reference: 10 µM cyclosporin A, DMSO, negative means inhibition", "measurement": "maximal response", "value": "-74.8%"}
{"Substance": "CC[C@H](C)[C@H](NC(=O)[C@H](CCCCN)NC(=O)[C@H](CCC(=O)O)NC(=O)[C@H](CCCCN)NC(=O)[C@H](CO)NC(=O)[C@H](CCCCN)NC(=O)[C@H](CCCNC(=N)N)NC(=O)[C@H](Cc1ccccc1)NC(=O)[C@H](Cc1ccccc1)NC(=O)[C@H](CC(=O)O)NC(=O)CNC(=O)[C@H](CC(C)C)NC(=O)[C@@H](N)CC(C)C)C(=O)NCC(=O)N[C@@H](CCCCN)C(=O)N[C@@H](CCC(=O)O)C(=O)N[C@@H](Cc1ccccc1)C(=O)N[C@@H](CCCCN)C(=O)N[C@@H](CCCNC(=N)N)C(=O)N[C@H](C(=O)N[C@H](C(=O)N[C@@H](CCC(N)=O)C(=O)N[C@@H](CCCNC(=N)N)C(=O)N[C@H](C(=O)N[C@@H](CCCCN)C(=O)N[C@@H](CC(=O)O)C(=O)N[C@@H](Cc1ccccc1)C(=O)N[C@@H](CC(C)C)C(=O)N[C@@H](CCCNC(=N)N)C(=O)N[C@@H](CC(N)=O)C(=O)N[C@@H](CC(C)C)C(=O)N[C@H](C(=O)N1CCC[C@H]1C(=O)N[C@@H](CCCNC(=N)N)C(=O)N[C@H](C(=O)N[C@@H](CCC(=O)O)C(=O)N[C@@H](CO)C(=O)O)[C@@H](C)O)C(C)C)[C@@H](C)CC)C(C)C)[C@@H](C)CC", "organism": "Staphylococcus aureus", "test system": "JE2 SAUSA300_1308 arlR transposon mutant", "conditions": "12.5% TSB", "how to read": "reference: wild type over mutant", "measurement": "MIC ratio", "value": "2 fold"}
{"note": "Excerpt of the above:"}
{"Substance": "TFFRLFNRGRRRRSVQWCA", "organism": "Streptococcus sanguis", "test": "OD600", "test system": "peptide, ATCC 49295, 4 h single-species biofilm", "conditions": "128 µg/ml, 5 min exposure, OD600 read over 5 h", "measurement": "biofilm growth", "value": "no effect"}
